Assay results gathered from unrelated publications.
Compare with care: the assays were run in different laboratories. Numbers after ± are the reported error.
Target: Indoleamine 2,3-dioxygenase 1 (IDO1, Homo sapiens, UniProt P14902)
Chain of UniProt P14902 (whole entry, looked up): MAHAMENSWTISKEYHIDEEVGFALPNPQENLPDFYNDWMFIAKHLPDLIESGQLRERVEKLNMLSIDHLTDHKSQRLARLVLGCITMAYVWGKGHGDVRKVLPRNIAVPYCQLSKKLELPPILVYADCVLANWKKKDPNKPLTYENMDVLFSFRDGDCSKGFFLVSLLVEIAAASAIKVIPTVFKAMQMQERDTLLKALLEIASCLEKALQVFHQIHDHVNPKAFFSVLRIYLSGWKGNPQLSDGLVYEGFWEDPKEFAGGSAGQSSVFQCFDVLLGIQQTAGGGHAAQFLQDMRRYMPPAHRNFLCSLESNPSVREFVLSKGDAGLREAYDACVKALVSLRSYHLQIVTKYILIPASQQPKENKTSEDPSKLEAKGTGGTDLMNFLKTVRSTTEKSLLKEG
Action: inhibitor

Structure (SMILES) | test | system | conditions | IC50
OCCOCCOCCOCCOCCOCCOCCOCCNCCNc1nonc1/C(=N/O)Nc1ccc(F)c(Br)c1 | kynurenine production | HeLa |  | 3.82 µM
O=C1c2c(O)cccc2[C@@H]([C@@H]2O[C@H](CO)[C@@H](O)[C@H](O)[C@H]2O)c2cc(CO)cc(O)c21 | kynurenine formation |  |  | 42.2 ± 1.51 µM
Oc1ccc(CCNc2ncnc3[nH]ncc23)cc1 |  |  |  | > 500 µM
C[C@@H]1O[C@@H](OCc2cc(O)c3c(c2)[C@H]([C@@H]2OC[C@@H](O)[C@H](O)[C@H]2O)c2cccc(O)c2C3=O)[C@H](O)[C@H](O)[C@H]1O | kynurenine formation |  |  | 39.4 ± 1.94 µM
O=C1CCC(N2Cc3c(NC(=O)COCCOCCNCCNc4nonc4/C(=N/O)Nc4ccc(F)c(Br)c4)cccc3C2=O)C(=O)N1 (stereo not drawn) | kynurenine production | HeLa |  | 9.36 µM
N=C(N)SCc1ccc(CSC(=N)N)cc1 | enzyme activity |  | with: 200 µM L-tryptophan | > 30 µM
CC(=O)c1cc(CO[C@H]2OC[C@H](O[C@@H]3O[C@H](CO)[C@@H](O)[C@H](O)[C@H]3O)[C@@H](O)[C@@H]2O)c2cccc(O[C@@H]3O[C@@H](C)[C@H](O)[C@@H](O)[C@H]3O)c2c1O | kynurenine formation |  |  | 83.8 ± 1.33 µM
Cc1cc(O)n(Cc2ccccc2)n1 |  |  |  | > 500 µM
N=C(N)SCc1ccc(Cl)cc1 | enzyme activity |  | with: 200 µM L-tryptophan | 4.09 µM
COC1=Cc2c(cc(O)c3cc(C)c(OC)cc23)C(C)(C)C1=O | enzyme activity |  |  | 2.2 µM
COc1cc(C)c2c(=O)cc(C[C@@H](C)O)oc2c1[C@@H]1O[C@H](CO)[C@@H](O)[C@H](O)[C@H]1OC(=O)/C=C/c1ccc(O)cc1 | kynurenine formation |  |  | 99.5 ± 2.75 µM
O=C(O)c1cc(-c2ccccc2)nc(O)n1 |  |  |  | > 500 µM

Some of these lines once more:
Structure (SMILES) | test | system | conditions | IC50
O=C1CCC(N2Cc3c(NC(=O)COCCOCCNCCNc4nonc4/C(=N/O)Nc4ccc(F)c(Br)c4)cccc3C2=O)C(=O)N1 (stereo not drawn) | kynurenine production | HeLa |  | 9.36 µM
N=C(N)SCc1ccc(CSC(=N)N)cc1 | enzyme activity |  | with: 200 µM L-tryptophan | > 30 µM
